Published values collected from several papers.
Each line is one published result; not all experiments were run side by side. Numbers after ± are the reported error.
Gria2/Glutamate receptor 3: Gria2/Glutamate receptor 3 (Rattus norvegicus, UniProt P19491+P19492)
Chain of UniProt P19492 (whole entry, looked up): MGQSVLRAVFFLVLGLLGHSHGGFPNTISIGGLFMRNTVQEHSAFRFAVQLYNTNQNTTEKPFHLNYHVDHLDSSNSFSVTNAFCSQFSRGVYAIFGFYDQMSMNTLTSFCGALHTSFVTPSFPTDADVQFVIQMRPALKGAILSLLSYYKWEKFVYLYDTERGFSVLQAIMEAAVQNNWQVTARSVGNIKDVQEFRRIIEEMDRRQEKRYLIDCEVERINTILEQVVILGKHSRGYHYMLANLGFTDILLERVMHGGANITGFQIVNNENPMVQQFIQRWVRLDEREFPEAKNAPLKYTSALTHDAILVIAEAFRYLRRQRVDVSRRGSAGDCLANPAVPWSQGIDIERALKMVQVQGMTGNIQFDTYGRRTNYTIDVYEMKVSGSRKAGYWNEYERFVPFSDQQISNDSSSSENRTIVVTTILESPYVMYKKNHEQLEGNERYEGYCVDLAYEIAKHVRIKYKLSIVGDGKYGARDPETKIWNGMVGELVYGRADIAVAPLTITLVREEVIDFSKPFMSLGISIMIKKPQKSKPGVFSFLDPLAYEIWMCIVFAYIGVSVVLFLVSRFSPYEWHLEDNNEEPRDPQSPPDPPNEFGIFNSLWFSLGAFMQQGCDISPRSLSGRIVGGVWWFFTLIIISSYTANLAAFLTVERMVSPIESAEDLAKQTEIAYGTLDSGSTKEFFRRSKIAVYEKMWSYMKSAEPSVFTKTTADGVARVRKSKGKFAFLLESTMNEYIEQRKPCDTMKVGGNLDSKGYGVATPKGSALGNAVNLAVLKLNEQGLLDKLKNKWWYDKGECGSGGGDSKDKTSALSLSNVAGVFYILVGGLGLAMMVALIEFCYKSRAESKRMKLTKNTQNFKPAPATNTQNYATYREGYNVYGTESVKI
Chain of UniProt P19491 (whole entry, looked up): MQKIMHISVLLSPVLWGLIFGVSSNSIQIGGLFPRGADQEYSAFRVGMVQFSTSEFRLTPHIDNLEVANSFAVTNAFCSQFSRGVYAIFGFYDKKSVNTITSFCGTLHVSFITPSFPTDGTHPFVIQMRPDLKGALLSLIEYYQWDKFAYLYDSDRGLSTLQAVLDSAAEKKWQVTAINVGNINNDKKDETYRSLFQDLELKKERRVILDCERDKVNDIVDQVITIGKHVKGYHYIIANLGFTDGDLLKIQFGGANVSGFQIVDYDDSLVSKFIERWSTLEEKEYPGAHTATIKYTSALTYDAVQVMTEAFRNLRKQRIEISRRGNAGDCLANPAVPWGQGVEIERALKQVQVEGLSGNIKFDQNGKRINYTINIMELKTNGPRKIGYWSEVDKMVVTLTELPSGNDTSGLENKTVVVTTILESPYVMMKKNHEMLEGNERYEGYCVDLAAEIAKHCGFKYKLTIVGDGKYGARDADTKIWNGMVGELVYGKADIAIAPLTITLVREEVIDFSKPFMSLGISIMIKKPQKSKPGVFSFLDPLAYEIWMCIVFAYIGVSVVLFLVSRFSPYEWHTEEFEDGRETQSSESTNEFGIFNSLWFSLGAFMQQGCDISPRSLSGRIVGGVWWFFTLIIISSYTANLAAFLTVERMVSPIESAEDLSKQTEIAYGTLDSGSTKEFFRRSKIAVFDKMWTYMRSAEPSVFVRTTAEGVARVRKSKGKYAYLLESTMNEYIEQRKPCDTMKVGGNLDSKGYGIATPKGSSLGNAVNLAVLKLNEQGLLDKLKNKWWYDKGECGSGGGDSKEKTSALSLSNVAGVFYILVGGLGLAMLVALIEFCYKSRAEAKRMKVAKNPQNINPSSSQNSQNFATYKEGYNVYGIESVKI
SETD7: Histone-lysine N-methyltransferase SETD7 (SETD7, Homo sapiens, UniProt Q8WTS6)
Chain of UniProt Q8WTS6 (whole entry, looked up): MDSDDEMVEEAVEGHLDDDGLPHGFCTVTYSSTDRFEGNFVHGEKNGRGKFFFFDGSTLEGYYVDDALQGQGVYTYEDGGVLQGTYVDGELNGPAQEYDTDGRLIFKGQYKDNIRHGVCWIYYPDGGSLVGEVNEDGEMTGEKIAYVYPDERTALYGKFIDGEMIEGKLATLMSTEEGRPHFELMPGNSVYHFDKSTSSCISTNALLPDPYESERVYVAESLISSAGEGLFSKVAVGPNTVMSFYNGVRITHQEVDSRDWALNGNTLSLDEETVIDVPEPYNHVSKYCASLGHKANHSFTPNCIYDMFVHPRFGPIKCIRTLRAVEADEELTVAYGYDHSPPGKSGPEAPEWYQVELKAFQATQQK
Chain of UniProt P20618 (whole entry, looked up): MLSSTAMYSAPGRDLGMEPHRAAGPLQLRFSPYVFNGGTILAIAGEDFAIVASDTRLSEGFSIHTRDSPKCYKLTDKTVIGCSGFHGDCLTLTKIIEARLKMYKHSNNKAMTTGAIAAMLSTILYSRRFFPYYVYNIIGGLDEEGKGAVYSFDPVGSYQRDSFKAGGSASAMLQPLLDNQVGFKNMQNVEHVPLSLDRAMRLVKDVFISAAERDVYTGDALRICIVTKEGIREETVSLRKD
Chain of UniProt P28062 (whole entry, looked up): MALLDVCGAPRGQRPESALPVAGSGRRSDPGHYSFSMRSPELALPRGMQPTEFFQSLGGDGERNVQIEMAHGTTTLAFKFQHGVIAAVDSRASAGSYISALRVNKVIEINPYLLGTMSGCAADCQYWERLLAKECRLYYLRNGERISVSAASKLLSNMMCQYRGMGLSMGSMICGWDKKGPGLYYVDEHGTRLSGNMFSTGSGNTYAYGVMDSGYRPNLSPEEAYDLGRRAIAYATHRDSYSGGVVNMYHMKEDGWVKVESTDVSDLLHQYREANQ
Chain of UniProt Q13574 (whole entry, looked up): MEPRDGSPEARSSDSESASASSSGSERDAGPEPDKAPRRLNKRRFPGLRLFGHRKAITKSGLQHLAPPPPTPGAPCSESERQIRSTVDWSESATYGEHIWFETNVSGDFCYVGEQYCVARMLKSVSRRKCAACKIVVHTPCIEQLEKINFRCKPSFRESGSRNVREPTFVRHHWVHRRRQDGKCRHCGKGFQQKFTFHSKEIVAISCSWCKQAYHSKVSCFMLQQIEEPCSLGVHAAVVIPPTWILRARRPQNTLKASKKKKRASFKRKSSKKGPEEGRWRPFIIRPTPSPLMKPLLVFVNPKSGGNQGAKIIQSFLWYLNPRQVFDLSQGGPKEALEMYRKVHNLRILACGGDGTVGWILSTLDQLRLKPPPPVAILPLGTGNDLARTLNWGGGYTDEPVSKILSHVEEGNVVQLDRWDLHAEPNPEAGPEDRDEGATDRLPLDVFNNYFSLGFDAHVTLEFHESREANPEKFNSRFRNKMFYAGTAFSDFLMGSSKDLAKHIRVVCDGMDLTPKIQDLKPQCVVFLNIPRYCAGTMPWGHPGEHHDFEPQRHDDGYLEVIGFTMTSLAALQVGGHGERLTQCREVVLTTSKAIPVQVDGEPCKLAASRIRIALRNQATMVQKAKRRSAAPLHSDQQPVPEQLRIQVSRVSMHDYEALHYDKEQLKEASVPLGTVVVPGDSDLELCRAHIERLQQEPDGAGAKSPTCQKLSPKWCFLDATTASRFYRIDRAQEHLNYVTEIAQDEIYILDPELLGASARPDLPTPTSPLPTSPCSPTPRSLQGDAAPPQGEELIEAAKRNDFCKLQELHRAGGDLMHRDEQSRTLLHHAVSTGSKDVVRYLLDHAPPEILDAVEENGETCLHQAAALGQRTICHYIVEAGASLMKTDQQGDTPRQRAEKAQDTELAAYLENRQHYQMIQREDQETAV
Chain of UniProt P27361 (whole entry, looked up): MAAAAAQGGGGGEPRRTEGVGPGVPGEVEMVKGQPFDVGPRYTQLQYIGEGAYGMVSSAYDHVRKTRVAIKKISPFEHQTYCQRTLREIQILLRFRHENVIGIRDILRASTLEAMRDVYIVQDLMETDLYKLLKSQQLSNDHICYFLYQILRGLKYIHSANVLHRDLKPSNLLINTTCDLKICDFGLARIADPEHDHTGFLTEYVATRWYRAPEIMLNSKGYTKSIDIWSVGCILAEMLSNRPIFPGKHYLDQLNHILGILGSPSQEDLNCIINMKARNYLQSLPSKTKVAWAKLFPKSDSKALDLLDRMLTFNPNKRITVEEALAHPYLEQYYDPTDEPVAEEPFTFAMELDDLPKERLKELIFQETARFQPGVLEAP
Chain of UniProt P10809 (whole entry, looked up): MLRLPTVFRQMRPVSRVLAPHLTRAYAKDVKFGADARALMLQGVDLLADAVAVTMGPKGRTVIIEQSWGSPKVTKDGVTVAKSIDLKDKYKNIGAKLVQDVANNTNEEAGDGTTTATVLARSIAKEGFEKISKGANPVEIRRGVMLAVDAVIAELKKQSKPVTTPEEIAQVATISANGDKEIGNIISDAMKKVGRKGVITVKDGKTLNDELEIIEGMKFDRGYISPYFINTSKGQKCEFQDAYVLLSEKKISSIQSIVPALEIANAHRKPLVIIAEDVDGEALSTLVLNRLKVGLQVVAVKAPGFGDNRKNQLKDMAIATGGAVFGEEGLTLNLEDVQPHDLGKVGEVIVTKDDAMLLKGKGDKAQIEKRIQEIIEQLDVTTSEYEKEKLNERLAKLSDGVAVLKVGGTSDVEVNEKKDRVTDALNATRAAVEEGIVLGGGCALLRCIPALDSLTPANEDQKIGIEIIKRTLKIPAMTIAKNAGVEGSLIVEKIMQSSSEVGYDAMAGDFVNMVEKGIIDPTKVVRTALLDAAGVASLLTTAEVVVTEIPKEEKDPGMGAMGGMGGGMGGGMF
Chain of UniProt P14902 (whole entry, looked up): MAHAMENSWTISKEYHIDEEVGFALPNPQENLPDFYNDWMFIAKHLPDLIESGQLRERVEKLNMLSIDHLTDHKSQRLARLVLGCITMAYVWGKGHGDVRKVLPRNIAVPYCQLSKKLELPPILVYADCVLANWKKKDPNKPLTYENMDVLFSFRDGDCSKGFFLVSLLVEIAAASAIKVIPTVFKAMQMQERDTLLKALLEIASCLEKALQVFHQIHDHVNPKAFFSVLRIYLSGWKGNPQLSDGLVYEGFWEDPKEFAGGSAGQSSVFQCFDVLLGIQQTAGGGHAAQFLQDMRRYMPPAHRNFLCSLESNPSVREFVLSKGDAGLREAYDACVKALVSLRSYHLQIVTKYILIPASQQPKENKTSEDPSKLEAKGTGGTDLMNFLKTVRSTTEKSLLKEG

SMILES | target | test | test system | conditions | IC50 [µM]
O=C1/C(=N\c2ccc(Cl)cc2Br)c2ccccc2N1Cc1cccc(Cl)c1 (mixture of isomers) | PIK3CA (Homo sapiens, UniProt P42336) | enzyme activity, inhibitor, ADP detection |  |  | 0.104
Cc1ccc(-c2c3c([nH]c(=O)c2C#N)C(CC(C)C)CCC3)cc1 (stereo not shown) | PDE9A (Homo sapiens, UniProt O76083) | enzyme activity, inhibitor, radiometric |  |  | 0.0199
C#CCCn1nc(C)c2c(Cl)c(C(=O)NCC3CC(Br)=NO3)cnc21 (stereo not shown) | 60 kDa heat shock protein, mitochondrial (Homo sapiens, UniProt P10809) | ATPase activity, inhibitor |  |  | > 250
Cc1cc(C)c(S(=O)(=O)N(CC(=O)O)c2ccc(Nc3ccnc(N4CCCC4)n3)cc2)c(C)c1 | MAPK3 (Homo sapiens, UniProt P27361) | enzyme activity, inhibitor |  |  | > 100
Cc1nn(-c2cccc(N)c2)c(=O)c2cnc(Nc3ccc(N4CCNCC4)cc3)nc12 | PDGFRA (Homo sapiens, UniProt P16234, D842V) | kinase activity, inhibitor, SelectScreen kinase profiling |  |  | > 10
O=C(O)Cc1cc2c(cc1C(=O)c1cccc(I)c1)OCO2 | Gria2/Glutamate receptor 3 | ion current, patch clamp |  |  | 4.71
CNC(=O)c1ccc(-c2cc(Cl)cc(Cl)c2Cl)c(N)n1 | SCN10A (Homo sapiens, UniProt Q9Y5Y9) | ion current, inhibitor, patch clamp |  |  | 0.55
COC(=O)c1ccccc1CN1CCC(Nc2nc(NCc3cccc(OC)c3)nc3[nH]cnc23)CC1 | IPMK (Homo sapiens, UniProt Q8NFU5) | enzyme activity, inhibitor |  |  | 26
Fc1ccc(Nc2nc(NC3CCCCC3)c3ccccc3n2)cc1F | ADRB2 (Homo sapiens, UniProt P07550, C125V) | β-arrestin2 recruitment, antagonist, BRET | HEK293 | mutant C125V, together with: isoprenaline 1 µM | 1.58
CC(C)(C)NC(=O)CC(NC(=O)CCc1ccccc1)C(=O)NCCNC(=O)c1cccc(-c2ccccc2)c1 (stereo not shown) | Proteasome component C5/PSMB8 (Homo sapiens, UniProt P20618+P28062) | enzyme activity, inhibitor |  | immunoproteasome β5i | 0.058
O=C(O)Cc1cc2c(cc1C(=O)c1cccc(Cl)c1)OCO2 | Gria2/Glutamate receptor 3 | ion current, antagonist, patch clamp |  |  | 4.27
Cc1oc(C)c(-c2ccc(N(CC(C)C)C3CCCCC3)c(NC(=O)Nc3cccc(B(O)O)c3)c2)c1C(=O)O | IDO1 (Homo sapiens, UniProt P14902) | enzyme activity, inhibitor, recombinant enzyme, item: kynurenine |  | 20 min, 2% DMSO, together with: L-tryptophan | 41 ± 4
O=C(Cc1ccc(OCc2ccccc2)cc1)NC1(C(=O)O)CCN(C(=O)c2ccc(-c3cccc(Cl)c3)cc2)CC1 | CHRM1 (Homo sapiens, UniProt P11229) | IP-1 accumulation, antagonist |  |  | > 10
O=C1C(Cl)=C(NCCNCCO)C(=O)c2ccccc21 | SETD7 | enzyme activity, inhibitor |  |  | > 50
C[C@@H]1CN(c2cc(=O)n(C)c3ccc(C#N)nc23)[C@H](C)CN1Cc1ccc(S(=O)(=O)n2cnc(C3CC3)n2)cc1 | DGKZ (Homo sapiens, UniProt Q13574) | inhibitor, ADP-Glo |  | together with: DAG micelles | 4.52
O=C1C(Cl)=C(NCCN2CCOCC2)C(=O)c2ncccc21 | SETD7 | enzyme activity, inhibitor |  |  | > 100

Some of these lines once more:
SMILES | target | test | test system | conditions | IC50 [µM]
Cc1nn(-c2cccc(N)c2)c(=O)c2cnc(Nc3ccc(N4CCNCC4)cc3)nc12 | PDGFRA (Homo sapiens, UniProt P16234, D842V) | kinase activity, inhibitor, SelectScreen kinase profiling |  |  | > 10
O=C(O)Cc1cc2c(cc1C(=O)c1cccc(I)c1)OCO2 | Gria2/Glutamate receptor 3 | ion current, patch clamp |  |  | 4.71
